Results from different studies.
Numbered parts are unrelated; each lists some results of a single study. Substitutions count along the parent as printed.

Set 1
Target: CCNB1, cyclin fold, Cln2 fusion (human)
Method: yeast growth competition, sequencing
Matrix: yeast
Notes: strong parent motif
Relative to: not given
Direction: higher = stronger binding
Starting sequence: viral docking peptide; KGVKRKLFAEDSS
Variant	normalised enrichment score
KGVKRKQFAEDSS [L7Q]	0.268
KGLKRKLFAEDSS [V3L]	0.73
KGVKRKLFAEYSS [D11Y]	1.56

Set 2
Target: Hepatocyte nuclear factor 3-alpha (Foxa1, Mus musculus, UniProt P35582, residues 1-468, full length assumed)
Method: EMSA with sequencing
Molecule type: double-stranded DNA, one strand shown
Matrix: in vitro
Concentration: 10 and 20 nM
Notes: whole designed probe, mean of two concentrations, ends assumed
Relative to: negative control set to 0
Direction: higher = stronger binding
Shared flanks, not repeated: GTGAGCGGTGCCCATTGATGGGGAAC … TTTCACTGGGATCGTGGGGAC
Target sequence (chain): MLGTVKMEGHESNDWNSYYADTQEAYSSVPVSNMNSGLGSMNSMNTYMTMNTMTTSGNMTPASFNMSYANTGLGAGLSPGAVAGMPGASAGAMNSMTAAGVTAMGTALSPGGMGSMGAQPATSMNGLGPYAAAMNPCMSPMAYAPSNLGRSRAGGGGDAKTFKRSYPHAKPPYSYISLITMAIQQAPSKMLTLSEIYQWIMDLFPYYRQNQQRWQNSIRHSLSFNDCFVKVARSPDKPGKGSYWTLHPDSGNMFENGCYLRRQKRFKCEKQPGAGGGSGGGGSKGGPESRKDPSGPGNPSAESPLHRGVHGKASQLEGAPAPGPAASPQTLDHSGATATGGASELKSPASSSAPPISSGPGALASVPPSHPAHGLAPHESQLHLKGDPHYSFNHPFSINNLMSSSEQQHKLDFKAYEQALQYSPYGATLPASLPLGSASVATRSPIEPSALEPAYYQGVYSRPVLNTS
Oligonucleotide	normalised bound fraction [ratio]
TTTCAGAGGACATCCTCTCCCCACCCAACCCCTACACCCGCCATGGCCCCAGGTTCATCTCTGCCGGCCCATATGACTCATTTGCTCTGGTGAGATTACTCAGGCACCAGATTACCCTCGTTTATGGCCGGCTTATTTATGGCTGGCTTCCAGGAACACAAGCTCCAGGAAGCGGTGGCCAAGAAAGTAGTGG	-0.0699
GGAGCAATGCCGGCTGGTGGCCTGGCCGCTCCGCCCCTTCCCTACCCCTCGCGGAGGGCCCGCCCCCTGCCCCGCGCCGGCTAGCGGAGGAGAGTAAATACAACAGGAGCGCAAAATGGCGGAACCGCCGAGCCCCGTGCACTGTGTCGCTGCCGCGGCCCCCACCGCCACCGTCTCGGAGAAAGAACCGTTT	0.23
TTTTCTTCTGGAAATTTACTATATGTAAAAAAGAAGGCAGGAAGGGAATTAAAGGAAAAAGTCCATTCTTCTGATGGCCTTTAAGTATCAAAGTAAACAGAAAATAACCTATTCCAACTACTGTTCCCATTGCTAAAATTGTCTTTTATAAATTTAAGAAAAAATATTAGTAGCAAACATATGATGCAAAGGA	0.349
CTCATTCCTTGCTTCCGCCAATAATCTGACTAGTAAAGAAGTCACTGCATGCCACAAATTGTCAGTGCTGACTTCCTCAACAAGGAAGTTATTTATTTACTTATGAGTGACTCAGTTAATATATATGCAAATTCCATCTTGAGAATACCAACTCCTGATGCCAACTGATTGTCAGTCATGGCTACAACAGGAG	0.491
TCGGCCAGCCTGGCTTCTGCGCCCCGCCAGGAGGTCGCGGAGCGGAGCGCGGCCAGGAAGTGAGCTGAGAGTGACAGCTCCCCCCACGCTGTTTGTTTATTCTCTCCACACACTGGCTCTATGACTCATTCTCTTTCTTTCGGGAGGAGGGGAGAAAGGAGCGGGAGGGCGGGCGGGCAGGGGAGAGGCAGGC	0.284

Set 3
Target: UBE2W UBC core domain (UniProt Q96B02)
Method: yeast two-hybrid
Matrix: yeast
Notes: mostly zero background
Relative to: not given
Direction: higher = stronger interaction
B1: DTX2 RING domain (UniProt Q86UW9); chain EELKVPPDEDCIICMEKLSTASGYSDVTDSKAIGSLAVGHLTKCSHAFHLLCLLAMYCNGNKDGSLQCPSCKTIYGEKTGTQ
B2: TRIM62 RING domain (UniProt Q9BVG3); chain MACSLKDELLCSICLSIYQDPVSLGCEHYFCRRCITEHWVRQEAQGARDCPECRRTFAEPALAP
B3: RFWD3 RING domain (UniProt Q6PCD5); chain ASMDEEEGDTCTICLEQWTNAGDHRLSALRCGHLFGYRCISTWLKGQVRKCPQCNKKARHSDIVV
B4: MDM4 RING domain (UniProt O15151); chain MEDCQNLLKPCSLCEKRPRDGNIIHGRTGHLVTCFHCARRLKKAGASCPICKKEIQLVIKVF
Construct (chain): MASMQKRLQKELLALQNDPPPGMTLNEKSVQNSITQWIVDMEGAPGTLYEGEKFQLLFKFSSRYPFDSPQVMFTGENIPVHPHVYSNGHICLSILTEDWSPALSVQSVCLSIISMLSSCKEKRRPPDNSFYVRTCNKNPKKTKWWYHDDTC
Sequence	lacZ reporter activity
KETIKKTTKPCPRCHVPVEKNGGCMHMKCPQPQCRLEWCWNCGCEWNRVCMG (PRKN RING domain (UniProt O60260))	0
GSDDEEIPFKCFICRQSFQNPVVTKCRHYFCESCALQHFRTTPRCYVCDQQTNGVFNPA (RNF113A RING domain (UniProt O15541))	0
B1 (DTX2 RING domain)	0
B2 (TRIM62 RING domain)	0
B3 (RFWD3 RING domain)	0
B4 (MDM4 RING domain)	0
NLSELTPYILCSICKGYLIDATTITECLHTFCKSCIVRHFYYSNRCPKCNIVVHQTQPLY (PCGF6 RING domain (UniProt Q9BYE7))	0

Set 4
Target: HLA class I histocompatibility antigen, A alpha chain, allele A*80:01 (Homo sapiens, UniProt P04439)
Observed: peptide-MHC binding
Molecule type: peptide
Concentration: concentration not given
Sequence	binding
HLPGFGTAF	inactive
YSTVRDLFL	inactive
GRYNLVPPK	inactive

Excerpt of the above (set 1):
Variant	normalised enrichment score
KGVKRKQFAEDSS [L7Q]	0.268
KGLKRKLFAEDSS [V3L]	0.73
KGVKRKLFAEYSS [D11Y]	1.56
